Results collected from several papers.
Each numbered part is a random draw from the data of one study; scales do not carry over between parts. Positions count from the first letter of the parent shown.

Set 1 — target: CCND3, cyclin fold, Cln2 fusion (human); technique: yeast growth competition, sequencing; matrix: yeast; setting: weak parent motif; reference: not given; reading: higher = stronger binding; quantity: normalised enrichment score
Parent: MICAL3 docking peptide (human); LQLRRQLSFSEDS
R4V: -0.209
Q2V: 0.129
L7K: 0.142
R5E: 0.325
D12Q: 0.311
E11W: -0.0733
L7N: -0.182
F9Q: 0.131
L3Q: -0.0511
E11K: 0.555
Q6S: -0.0775
F9C: 0.313
S8D: 0.0157
S8P: 0.162

Set 2 — technique: RNA Bind-n-Seq; form: RNA; matrix: in vitro; tested at: not given; setting: RNA with constant flanks, ends assumed; reference: input RNA pool; reading: higher = stronger binding; quantity: bound/input enrichment
Target: RING finger protein unkempt homolog, zinc fingers 1-6, GST-SBP tag (UNK, Homo sapiens, UniProt Q9C0B0, residues 30-357)
UniProt Q9C0B0, sequence (30-357, looked up): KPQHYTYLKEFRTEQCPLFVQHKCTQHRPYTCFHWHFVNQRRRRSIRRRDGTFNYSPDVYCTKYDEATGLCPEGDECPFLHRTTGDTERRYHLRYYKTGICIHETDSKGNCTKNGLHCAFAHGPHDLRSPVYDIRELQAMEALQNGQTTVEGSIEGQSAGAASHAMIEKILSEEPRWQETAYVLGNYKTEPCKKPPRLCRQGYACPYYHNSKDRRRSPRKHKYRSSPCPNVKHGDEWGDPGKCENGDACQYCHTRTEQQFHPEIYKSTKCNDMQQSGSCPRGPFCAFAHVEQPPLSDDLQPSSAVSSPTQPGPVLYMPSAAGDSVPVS
All sequences stand within: GGGAGUUCUACAGUCCGACGAUC … CAACAGAGGAUUGAGCAUCA
ACAGCUAGUGGCUGCUUGGUUGAAAGGAGGCAUUGACUUCAGCAACACAAUUAUGUUUUUAUCCGGAAUGUGCCAUACCGAAUCCGUGUGCGGCUGUCCAGAAAACGUAAUGAGGAUGAA: 0.0688 ratio
GAUGAAUUGAUGACCCUGGCUCAUAAGCACAUUGUCAAGACUGUGGAUUUCACACAGGACCGCAAUUACCUGCUAACUGGGGGACAGGAUAAACUGCUGCGCAUAUAUGACUUGAACAAA: 0.246 ratio
CAUAUUGUAUGUAGAGAAAAAUUUUCAUUGACUCCCAUUGUGGAAUUCCCUAGCAAUUUAUUCCGACUUAAUUUUUUAAAUUCAAGCUUACUGUAUUAGUCAUUUUUAGCCCAUAAUUAA: 187 ratio
CUGCAGUAAAACACAGAAGGCUUUAAAAUGUUUUCUUGCAUAAAAUUCAAAACUUUUAAGCCGCUGCUUAUGAGAAUAGGGAAGGCAGAAAGCUAAUGUCUGUCUCAAGAUACAGGACAG: 0.227 ratio
ACAUCAGCGAACUCAUGCAGGGGAAAAGCCUUAUGGGUGCAGUGAAUGUGGGAAAGCUUUCCGCAGCAAGUCAUACCUAAUUAUACACAUGAGAACUCAUUCAGGUGAAAAACCAUAUGA: 0.146 ratio
UUUGAUGAGUUCAGAACAGUGCUGUAACUGUUUUUCCUACUUCUUCAAUGGAAGGAUUGUCCUCCGAUCUUCCCACCAUCACAAAUGAAUUUGAAGAUGAAAAGAAACUCAGUUGCUCAU: 0.0724 ratio
GAGGAAGAGAAUGUUGUUUUAAAGUUCUCUGAACAGGGGGGAACCCCACAGAAUGUGGCCACCCGCAGCUCCCUCACAGCACAUCUCAGAAGCCUCUCCAAAGGAGAUUCCCCUGUGACU: 0.161 ratio
AAGAAAAUCAGUACUCCUGUUGAUGUCAAUAACCGUGAGAUGAUGUUGAGCAUCAUCAACCGCUCUAUUACUACAAAAGUCAUCAGUCGGUGGUCCUCCUUGGCAUGCAACAUUGCACUG: 0.091 ratio
ACUGUCCAGGAGGUUCACCCAGGAGAACCUCCGUUCGACUUGGAGCUGUUCUACGUUAAGUACCGAAAUUUUUCCUACUUACAUUGUAAAUGGGCCACAAUGGAAGAGCUCGAAAAGGAU: 0.198 ratio
UUGGAAAAUGGAUAUACUUUAUUUGACUACGACGUUGGACUGAAUGAUAUAAUUCAGCUGCCCGUUCGUCCAGACUCCAGUCUUCCUAGCACAUCUAAGCAGAAUGAUGCUCAGGUUAAA: 0.742 ratio
ACAAAAAUCAAGAAAAUGUUUCUCACCUCUCAGUUUCUUCUGCUUCACCAACAUCGUCCGCCGCAUCAGCUGCAGGAAGUGUAACAAGCUCUAGUCUUCAGAAAUCUCCUACGCUGCUCA: 0.299 ratio

Set 3 — target: UBE2J1 UBC core domain (UniProt Q9Y385); technique: yeast two-hybrid; matrix: yeast; setting: mostly zero background; reference: not given; reading: higher = stronger interaction; quantity: lacZ reporter activity
UniProt Q9Y385, sequence (whole entry, looked up): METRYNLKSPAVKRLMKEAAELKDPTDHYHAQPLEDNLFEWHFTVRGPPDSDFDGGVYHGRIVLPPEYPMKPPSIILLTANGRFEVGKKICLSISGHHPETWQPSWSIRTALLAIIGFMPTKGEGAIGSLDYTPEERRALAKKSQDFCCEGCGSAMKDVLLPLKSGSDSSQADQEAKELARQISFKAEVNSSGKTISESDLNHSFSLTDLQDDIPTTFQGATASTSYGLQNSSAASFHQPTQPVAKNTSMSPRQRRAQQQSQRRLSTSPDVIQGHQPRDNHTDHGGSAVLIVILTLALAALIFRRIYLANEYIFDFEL
B1: TRIM68 RING domain (UniProt Q6AZZ1); chain LVEAIVEEVACPICMTFLREPMSIDCGHSFCHSCLSGLWEIPGESQNWGYTCPLCRAPVQPRNLRP
B2: MDM2 RING domain (UniProt Q00987); chain TQDKEESVESSLPLNAIEPCVICQGRPKNGCIVHGKTGHLMACFTCAKKLKKRNKPCPVCRQPIQMIVLTYFP
B3: RFPL3 RING domain (UniProt O75679); chain MAALFQEASSCPVCSDYLEKPMSLECGCTVCLKCINSLQKEPHGEDLLCCCCSMVSQRNKIRP
B4: RNF7 RING domain (UniProt Q9UBF6); chain AICRVQVMDACLRCQAENKQEDCVVVWGECNHSFHNCCMSLWVKQNNRCPLCQQDWVVQRIGK
B5: RMND5B RING domain (UniProt Q96G75); chain MKCWYHSVFACPILRQQTSDSNPPIKLICGHVISRDALNKLINGGKLKCPYCPMEQNPADGK
B6: PJA2 RING domain (UniProt O43164); chain DHTAIGQEQCCPICCSEYIKDDIATELPCHHFFHKPCVSIWLQKSGTCPVCRRHFPPAVIEA
EDVLSKDAGECAICLEELQQGDTIARLPCLCIYHKGCIDEWFEVNRSCPEHPSD (ZNRF2 RING domain (UniProt Q8NHG8)): 0
B1 (TRIM68 RING domain): 0
GSEEEEIPFRCFICRQAFQNPVVTKCRHYFCESCALEHFRATPRCYICDQPTGGIFNPA (RNF113B RING domain (UniProt Q8IZP6)): 0
B2 (MDM2 RING domain): 0
B3 (RFPL3 RING domain): 0
B4 (RNF7 RING domain): 0
B5 (RMND5B RING domain): 0
PLRRLQEEKLCKICMDRHIAVVFIPCGHLVTCKQCAEAVDRCPMCSAVIDFKQRVF (BIRC8 RING domain (UniProt Q96P09)): 0
SNNDLASLFECPVCFDYVLPPILQCQSGHLVCSNCRPKLTCCPTCRGPLGSIRNLA (SIAH1 RING domain (UniProt Q8IUQ4)): 0
B6 (PJA2 RING domain): 0
MEEMEEELKCPVCGSFYREPIILPCSHNLCQACARNILVQTPESESPQSHRAAGSGVSDY (TRIM9 RING domain (UniProt Q9C026)): 0

Set 4 — technique: DHFR PCA, deep sequencing; matrix: yeast; added: (+)-ABA 0.39 µM; reference: wild-type fitted maximum; reading: higher = stronger binding; quantity: relative binding score
Target: ABI1, truncated, D143A, DHFR fusion (Arabidopsis thaliana)
Setting: methotrexate growth selection, single substitutions
Parent: PYL1, truncated, DHFR fusion (Arabidopsis thaliana); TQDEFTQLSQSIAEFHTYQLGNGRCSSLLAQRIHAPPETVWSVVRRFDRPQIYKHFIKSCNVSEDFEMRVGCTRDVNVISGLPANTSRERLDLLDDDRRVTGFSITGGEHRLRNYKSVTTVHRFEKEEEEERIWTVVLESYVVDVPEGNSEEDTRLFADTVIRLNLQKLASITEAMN
R111D: -0.549%
G21Q: 42%
I57P: -15.3%
D48N: 4.71%
S87A: 10.1%
R88F: 31.1%
R113E: 10.8%
R74N: -4.91%
E131Q: 63%
R49T: 28.7%
R69D: 12.4%
I12G: -0.36%
E128C: 49.5%
N149V: 54.7%

Set 5 — technique: protein-binding microarray; form: double-stranded DNA, one strand shown; matrix: in vitro; tested at: not given; reading: higher = stronger binding; quantity: E-score
Target: Protein C-ets-1 (ETS1, Homo sapiens, UniProt P14921, residues 1-441, K379A, full length assumed)
Setting: k-mer, scored over probes, only values ≥0.25
Target sequence (chain): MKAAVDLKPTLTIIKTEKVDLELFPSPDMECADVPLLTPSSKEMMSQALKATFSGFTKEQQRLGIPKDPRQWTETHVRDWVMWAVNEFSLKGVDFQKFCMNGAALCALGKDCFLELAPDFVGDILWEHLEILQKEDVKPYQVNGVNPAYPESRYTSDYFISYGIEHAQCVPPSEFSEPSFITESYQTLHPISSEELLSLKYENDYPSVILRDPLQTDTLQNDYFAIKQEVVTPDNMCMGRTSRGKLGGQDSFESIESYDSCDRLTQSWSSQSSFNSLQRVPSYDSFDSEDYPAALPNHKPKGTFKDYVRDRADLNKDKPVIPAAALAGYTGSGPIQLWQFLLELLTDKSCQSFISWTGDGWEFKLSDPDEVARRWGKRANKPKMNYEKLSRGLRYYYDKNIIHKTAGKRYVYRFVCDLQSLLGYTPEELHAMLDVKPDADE
ACCCTCCC: 0.251
ACAACCGT: 0.278
GGGCGGAA: 0.322
AAAGACAA: 0.256
CCGGATAG: 0.255
CGGTGACC: 0.262
GTGGTACA: 0.264
CGGTAAAG: 0.262
CTTCAATA: 0.34
ACCGGATA: 0.438
CCGGGGAG: 0.269
CACATTTC: 0.285
CGTCGGTC: 0.269
CGGTAATC: 0.325
ACCACAAA: 0.296
ATATATGA: 0.253
CGGGCGGA: 0.265
ACCGACAA: 0.431
ACGCGTAA: 0.261
CATGCCCG: 0.259

Set 6 — technique: universal PBM; form: double-stranded DNA, one strand shown; matrix: in vitro; tested at: 600 nM; reading: higher = stronger binding; quantity: E-score
Target: Sal-like protein 4, full length isoform A (SALL4, Homo sapiens, UniProt Q9UJQ4, residues 1-1053)
UniProt Q9UJQ4, sequence (whole entry, looked up): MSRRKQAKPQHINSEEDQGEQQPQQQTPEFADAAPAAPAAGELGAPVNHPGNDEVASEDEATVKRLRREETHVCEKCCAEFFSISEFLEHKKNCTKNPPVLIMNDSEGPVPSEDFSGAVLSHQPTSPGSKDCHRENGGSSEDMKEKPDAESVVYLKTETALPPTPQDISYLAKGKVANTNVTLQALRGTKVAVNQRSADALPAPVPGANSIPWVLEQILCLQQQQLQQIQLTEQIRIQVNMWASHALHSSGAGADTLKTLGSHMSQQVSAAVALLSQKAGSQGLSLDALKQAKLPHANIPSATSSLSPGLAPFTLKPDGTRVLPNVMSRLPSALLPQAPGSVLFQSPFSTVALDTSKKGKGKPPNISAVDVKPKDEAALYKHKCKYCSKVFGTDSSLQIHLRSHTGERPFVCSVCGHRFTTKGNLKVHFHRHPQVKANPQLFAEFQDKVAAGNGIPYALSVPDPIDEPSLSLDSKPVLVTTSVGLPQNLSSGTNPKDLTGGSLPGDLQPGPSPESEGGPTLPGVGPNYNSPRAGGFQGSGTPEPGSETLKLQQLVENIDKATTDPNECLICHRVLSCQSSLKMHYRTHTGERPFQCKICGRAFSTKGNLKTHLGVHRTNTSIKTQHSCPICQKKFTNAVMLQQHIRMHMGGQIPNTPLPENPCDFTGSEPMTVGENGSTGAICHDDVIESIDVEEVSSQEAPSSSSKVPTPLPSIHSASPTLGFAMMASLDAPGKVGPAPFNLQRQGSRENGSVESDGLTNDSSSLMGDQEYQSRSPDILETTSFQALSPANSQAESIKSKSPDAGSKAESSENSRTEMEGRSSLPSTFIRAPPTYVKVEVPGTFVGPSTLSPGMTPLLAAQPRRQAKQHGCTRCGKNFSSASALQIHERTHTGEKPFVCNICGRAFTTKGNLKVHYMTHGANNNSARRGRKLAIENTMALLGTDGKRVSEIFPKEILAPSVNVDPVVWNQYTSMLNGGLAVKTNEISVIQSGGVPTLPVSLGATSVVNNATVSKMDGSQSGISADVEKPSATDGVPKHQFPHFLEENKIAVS
Setting: 8-mer, flanks averaged, mean of replicates
TGAATAAA: 0.295
ACCTATCA: 0.0134
CCACCTAC: 0.0326
TAAAAGCA: 0.136
GGATCCAA: -0.0754
CGGTCGTC: -0.288
CGTCACCA: -0.0317
AGCAAATC: 0.125
GAGCTCTA: -0.133
TAGTACAA: 0.127
CAGCTAAA: 0.0981
ACTATCGA: 0.0424
GGCAGCTA: -0.106
AGGTGACT: -0.0126
TCAGGTAA: 0.0876
ACTGTAAA: 0.254
ATCAGCGC: -0.149
GCATATAC: 0.161
GACGGCCA: -0.276
CTTTCACA: 0.162
ATCGTGAC: -0.0126
AATTGAAG: 0.147
TGGTCGAA: -0.168

A few entries again (set 1):
R4V: -0.209
Q2V: 0.129
L7K: 0.142
R5E: 0.325
D12Q: 0.311
E11W: -0.0733
L7N: -0.182
F9Q: 0.131
L3Q: -0.0511
E11K: 0.555
Q6S: -0.0775
F9C: 0.313
